Experimental data pooled from the literature.
Protocols differ between the studies behind these lines.
Medium: plasma

Brc1ccccc1-c1nnc(CSc2nnnn2-c2ccccc2)o1 — AUC(0-t) (male C57BL/6 mouse; intraperitoneal, 10 mg/kg): 1.58 µM·h
COC(=O)C1OC(Oc2c(-c3ccccc3)oc3cc(O)c(O)c(O)c3c2=O)C(O)C(O)C1O (centres unmarked) — AUC(0-t) (BALB/c mouse; oral, 10 mg/kg, single dose): 35.7 ng·h/mL
C[N+]1(CC(=O)OC2CCCCCCCCCCC2)CCCCC1 — AUC(0-t) (mouse; intraperitoneal, 2.5 mg/kg, single dose): 180 ng·h/mL
NS(=O)(=O)NCC(F)(F)c1ccccc1F — AUC(0-t) (mouse; oral, 5 mg/kg): 17000 ng·h/mL
N#Cc1cnc2cc(OCC3CCNCC3)c(F)cc2c1Nc1cc(F)c(OCc2cccc(Cl)n2)cc1Cl — AUC(0-t) (female CD-1 mouse; oral, 20 mg/kg): 3680 ng·h/mL
C[C@H]1CN(C(=O)c2cn(-c3ccnc(N)n3)c3cc(C#CC4(O)CCCCC4)ccc23)CCN1 — AUC(0-t) (CD-1 mouse; oral, 10 mg/kg): 165 ng·h/mL
Cc1ccc2oc(-c3c4c(N)n[nH]c(=O)c4nn3-c3ccc(NC(=O)/C=C/CN(C)C)cc3)c(C)c2c1 — AUC(0-t) (mouse; intravenous, 1 mg/kg): 281 ng·h/mL
CCC(=C(c1ccc(Cl)cc1)c1ccc(OCCN2CCOCC2)cc1)c1ccc(OC)cc1 — AUC(0-t) (male C57BL/6 mouse; oral, 400 mg/kg, single dose): 10300 ng·h/mL
Cc1ccc(CNC(=O)Cc2ccc(-c3ccc(OCCN4CCOCC4)cc3)cn2)cc1 — AUC(0-t) (CD-1 mouse; oral, 10 mg/kg): 940 ng·h/mL
CC(C)(O)Cn1nc(-c2ccccc2)c2c(Cl)c(-c3ccccc3)nnc21 — AUC(0-t) (mouse; intraperitoneal, 10 mg/kg): 1.98 µM·h
CCOC(=O)c1nc2cc(Cl)c(Cl)cc2nc1N1CCN(C(=O)Nc2ccc(N3CCNCC3)cc2)CC1 — AUC(0-t) (male mouse; oral, 10 mg/kg): 253 ng·h/mL
O.O=C(O)/C=C\C(=O)O.O=c1[nH]cnc2n[nH]cc12 — AUC(0-t) (female BALB/c mouse; oral, 30 mg/kg): 69600 ng·h/mL
COC(=O)c1ccc2c(c1)NC(=O)/C2=C(\Nc1ccc2c(c1)CCN2C(=O)CN1CCOCC1)c1ccccc1 — AUC(0-t) (CD-1 mouse; oral, 50 mg/kg): 17000 ng·h/mL
O=C1C2=C(CCN(Cc3ccccc3)C2)N2CCN=C2N1Cc1ccc(C(F)(F)F)cc1 — AUC(0-t) (female CD-1 mouse; oral, 50 mg/kg): 5720 ng·h/mL

A few entries again:
Cc1ccc2oc(-c3c4c(N)n[nH]c(=O)c4nn3-c3ccc(NC(=O)/C=C/CN(C)C)cc3)c(C)c2c1 — AUC(0-t) (mouse; intravenous, 1 mg/kg): 281 ng·h/mL
